Results pooled from the literature.
Numbered parts are unrelated; each lists some results of a single study. Changes are numbered by the printed parent chain.

Block 1
Target: Ras GTPase-activating protein-binding protein 1, C-terminal RGG region (G3BP1, Homo sapiens, UniProt Q13283)
Sequence of UniProt Q13283 (whole entry, looked up): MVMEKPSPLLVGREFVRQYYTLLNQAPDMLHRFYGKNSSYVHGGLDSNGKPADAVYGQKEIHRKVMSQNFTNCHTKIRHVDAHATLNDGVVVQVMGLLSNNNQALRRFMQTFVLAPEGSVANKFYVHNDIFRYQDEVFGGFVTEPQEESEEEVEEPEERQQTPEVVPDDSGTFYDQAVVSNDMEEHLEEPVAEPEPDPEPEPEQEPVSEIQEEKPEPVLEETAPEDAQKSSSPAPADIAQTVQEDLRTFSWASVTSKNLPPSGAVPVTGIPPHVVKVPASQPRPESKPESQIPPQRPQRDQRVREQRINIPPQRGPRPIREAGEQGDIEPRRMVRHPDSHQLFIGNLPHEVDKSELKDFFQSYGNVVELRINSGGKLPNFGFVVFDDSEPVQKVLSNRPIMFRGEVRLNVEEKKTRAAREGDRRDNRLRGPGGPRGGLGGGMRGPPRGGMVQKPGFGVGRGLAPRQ
Method: RNA Bind-n-Seq
Form: RNA
Medium: in vitro
Tested at: 1 µM
Setting: whole 134-nt RNA, ends assumed
With: 150 mM KCl
Reference: input library
Direction: higher = stronger binding
Constant ends, left off below: GGGAGUUCUACAGUCCGACGAUC … UGGAAUUCUCGGGUGUCAAGG
For `AAGUCCUGUGCUACACAUCGUAUGUACCGAAUCGGUUUGGUUUUUGGUUUUUUUGGAAAGUAUUAUGUUACGCCGUUCGGAUCUGCACUU`, the log2 enrichment was -1.77.
`UCCUGUGCUACACAUCGUAUGUACCGAAUCGGGGUUUUUGGGGUUUUUGGGGUUUUUGGAAAGUAUUAUGUUACGCCGUUCGGAUCUGCA` gave a log2 enrichment of -0.0749.
For `UCAAGUCCUGUGCUACACAUCGUAUGUACCGAAUCGGGGCCGGGCCGGGCCGGGAAAGUAUUAUGUUACGCCGUUCGGAUCUGCACUUCC`, the log2 enrichment was -0.0574.
`CUCAAGUCCUGUGCUACACAUCGUAUGUACCGAAUCGGCCGGGGCCGGGCCGGGAAAGUAUUAUGUUACGCCGUUCGGAUCUGCACUUCC` gave a log2 enrichment of -1.3.
The log2 enrichment of `AGUCCUGUGCUACACAUCGUAUGUACCGAAUCGGUUUUUUUGGUUUUUGGUUUUUGGAAAGUAUUAUGUUACGCCGUUCGGAUCUGCACU` is reported as -1.68.
`AAGUCCUGUGCUACACAUCGUAUGUACCGAAUCGGGGUUUUUGGGGUGGGGUGGGGAAAGUAUUAUGUUACGCCGUUCGGAUCUGCACUU` gave a log2 enrichment of 1.76.
`AUAUGAGUAAAAUCUGUCCCUUUUUCCCCCUUUGAAUGAGGUCUUCCAUGUUUGAGGGAAAGUCUUGCACUAUUGCAUAUAUUUUGGGGA` gave a log2 enrichment of -0.995.
`UAACUUUAGAGGAGGAACUGAUGGAUAUGGCAGUGGACGUGGAUUUGGGGAUGGCUAUAAUGGGUAUGGAGGAGGACCUGGAGGUGGCAA` has a log2 enrichment of -0.929.
`AAGUCCUGUGCUACACAUCGUAUGUACCGAAUCGGGGUGGGGUGGGGAAAAAGGGGAAAGUAUUAUGUUACGCCGUUCGGAUCUGCACUU` has a log2 enrichment of 1.29.
`AAGUCCUGUGCUACACAUCGUAUGUACCGAAUCGGGAAAGGGUGGGUUUUUUUGGGAAAGUAUUAUGUUACGCCGUUCGGAUCUGCACUU` has a log2 enrichment of 1.04.
`CCUGUGCUACACAUCGUAUGUACCGAAUCGGGGUUUUUUGGGUUUUUUGGUUUUUUGGGGAAAGUAUUAUGUUACGCCGUUCGGAUCUGC` has a log2 enrichment of -1.54.
`CAAGUCCUGUGCUACACAUCGUAUGUACCGAAUCGGGGCCCGGGCCCGGCCCGGGAAAGUAUUAUGUUACGCCGUUCGGAUCUGCACUUC` gave a log2 enrichment of -1.88.
`UCCUGUGCUACACAUCGUAUGUACCGAAUCGGGGAAAAAAGGAAAAAAGGGAAAAAAGGGAAAGUAUUAUGUUACGCCGUUCGGAUCUGC` gave a log2 enrichment of -1.17.
`UGGCCCUGGUGGCAUGCGGAGAGGAAGAGGUGGCCUCAUGGAUCGUGGUGGUCCCGGUGGAAUGUUCAGAGGUGGCCGUGGUGGAGACAG` has a log2 enrichment of 1.78.

Block 2
Target: CCNB3, cyclin fold, Cln2 fusion (human)
Method: yeast growth competition, sequencing
Medium: yeast
Setting: weak parent motif
Reference: not given
Direction: higher = stronger binding
Parent: MICAL3 docking peptide (human); LQLRRQLSFSEDS
Under “normalised enrichment score”, `LQLRRQLSFSELS [D12L]` is recorded as 0.275.
`LQLKRQLSFSEDS [R4K]` — result for “normalised enrichment score”: 0.0103.
`LQLRRNLSFSEDS [Q6N]` — result for “normalised enrichment score”: 0.154.
For `LQLRRQLSFDEDS [S10D]`, “normalised enrichment score” read 0.23.
`LQLRRQLLFSEDS [S8L]`: “normalised enrichment score” 0.513.
For `LQLRRQNSFSEDS [L7N]`, “normalised enrichment score” read -0.138.
Under “normalised enrichment score”, `LQLRRQLFFSEDS [S8F]` is recorded as 0.885.
Under “normalised enrichment score”, `LQLRPQLSFSEDS [R5P]` is recorded as 0.159.
For `LQLRRCLSFSEDS [Q6C]`, “normalised enrichment score” read 0.471.
For `LQPRRQLSFSEDS [L3P]`, “normalised enrichment score” read 0.278.
Under “normalised enrichment score”, `LQLRRQLSFSEMS [D12M]` is recorded as 0.32.
`LQLRRILSFSEDS [Q6I]`: “normalised enrichment score” 0.541.
For `LQLRRQLTFSEDS [S8T]`, “normalised enrichment score” read 0.222.
`LQARRQLSFSEDS [L3A]` — result for “normalised enrichment score”: 0.336.
`LQLRRHLSFSEDS [Q6H]`: “normalised enrichment score” -0.108.
`LQLRRQLSFSEHS [D12H]` — result for “normalised enrichment score”: 0.2.

Block 3
Target: RNA binding protein fox-1 homolog 2, RRM domain, GST-SBP tag (RBFOX2, Homo sapiens, UniProt O43251-10, residues 100-194)
Method: RNA Bind-n-Seq
Form: RNA
Medium: in vitro
Tested at: 365 nM
Setting: natural RNA segment, single round, ends assumed
Reference: no-protein control
Direction: higher = stronger binding
Constant ends, left off below: GGGAGUUCUACAGUCCGACGAUC … UGGAAUUCUCGGGUGCCAA
Target sequence (chain): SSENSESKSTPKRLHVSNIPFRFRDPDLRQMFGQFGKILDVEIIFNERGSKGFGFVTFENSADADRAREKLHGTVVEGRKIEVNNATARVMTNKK
`AAACCCUCUUCAGAGCAAGCGUGGAGGAUGAUGGAGAAUCGUGUGAUCAGUGUGCUAAAUCUCUCUGCCUGUUUGGACUUUGUAAUUAUUUUUUUAGCAGUAAUUAAAGA` — result for “RBNS enrichment (R)”: 3.54.
`UAACUUUAGGUUUACUUUCACUUGUUAUUUGACUUAGCAGGUGCAACAAAAACAAGAAACAAAUGUGCCCACCCCACUUUCCGCUUAACUGAAAAGCUUAAAAUAAAUUU` — result for “RBNS enrichment (R)”: 0.484.
`GAAAAUGAACCAAAUGUCAUUACUUUUGUCUUAAAGAAAAGUCUAUUUCAAGAAUAUGAACAGCAGUUUUCCUUGUACAUGUCACCUUUUUUCACAUUUUCAUUAAUCAG` — result for “RBNS enrichment (R)”: 0.335.
`AGAACCUGCUGGCCUUGUUAGACAGCACUUGGGCCUUUGCCAGCAGCAAGAGGUGAAGCGAAGCCACUCUUACCUCUCCCUUCCCCUCCCACCUGCCCCCUGCGUAGGCA`: “RBNS enrichment (R)” 0.725.
Under “RBNS enrichment (R)”, `AGUUUAUUGUUAUUCACAAAUGCAAAUAGGUUUUCAAACUACAGACAGUUUUGAAAGACAUUAAUUCUCAUUUUCUUCUAGUCAGGAGUAAUACAAGCAAACAAGUGUCC` is recorded as 0.328.
Under “RBNS enrichment (R)”, `GUAGUGAUUAGCAUUUAGAUAAUGUAACAGGAUUUUAGAGAGCACUUUGAAAGAUAACAUUUUAUUAUGAUGGUGCUAGGUAAAAAAUUGUAAAGACUGGGAUGGUUGUG` is recorded as 0.272.
Under “RBNS enrichment (R)”, `UAGUUUUCAGUUGCUGAAGUAGCUCAUUUUCUCUUACUAAUGUUUGGUUCCUCAGGGAAGAAUCUCACUUGACUAGAGAGGAGGUGGGAACAGAAGAGAGAAGGAGGCAG` is recorded as 0.498.
For `AGAACCAGUGAGUGGUGAGAGCUCUGUCAGUGACAAACACUCCUUUGGCCUGUUGAAUUUGCUGAAGAACAUCACCUAAAGUCUGCACACGAGCCCAUUUUUACCAAGAU`, “RBNS enrichment (R)” read 0.213.
For `UAAGGAGUUUCUCAGACAAAUUGAAAAUUCUAUAUGUUUUGAGGAAAUAAGGGGAAGCUUUAGAGUUUAAUAGGAUAUUCAAAACUAUAAAAGAAUAUCAUCUUAAAAAA`, “RBNS enrichment (R)” read 0.752.
`AAGGAGUCUGGGUGGAAGCAAAUUGUUUUUAAUGGACUUGCAUCUCCUCACCUUGAUCAGGACUAAAGGACGGAGGCCACUCCACCCCUUCCCCUUCUUCCAAAUCCCUA` — result for “RBNS enrichment (R)”: 0.247.
For `CCAGGGUUGCUUGGAGAAGGCUCAGUGUGCCUGGGACAGGGCUUACCACCUGCCACCAAGGUUUCCUCUCUUCCCCCAGGACCUGGGCAGAGCAGGCAUGAGCUGGGCUG`, “RBNS enrichment (R)” read 2.19.
Under “RBNS enrichment (R)”, `CAUCGUACCUUCAGUUUAGGCUGUUUUCAUGACCUCACAUCUGUGUAGCACAAAGGGUGUUAUCUUCCUAUAGCAGAUCAACAGUGGCAGCUCACAGUACCAGCCAGCUU` is recorded as 0.282.

Further values, each from its own experiment
With `PhoQ, residues 284 288 289 292 302 303 SIHMAM` the fold induction was 11.8 (PhoP, residues 12 14 15 18 19 TQAIL (Escherichia coli, UniProt P23836); Sort-seq, item: YFP reporter; E. coli; PhoQ-PhoP variant library, with: 10 µM Mg2+; reference: high Mg2+ state, higher = stronger signaling).

Repeated from above (block 2):
`LQLRRQLLFSEDS [S8L]`: “normalised enrichment score” 0.513.
Under “normalised enrichment score”, `LQLRRQLSFSELS [D12L]` is recorded as 0.275.
`LQLRRQLSFSEHS [D12H]` — result for “normalised enrichment score”: 0.2.
For `LQLRRQLSFDEDS [S10D]`, “normalised enrichment score” read 0.23.
